Published values from different studies.
Parts stem from different laboratories: compare values within a part only. Values joined by “and” are separate records of one study, mostly repeats; a detail may differ.
UniProt P9WI81, sequence (whole entry, looked up): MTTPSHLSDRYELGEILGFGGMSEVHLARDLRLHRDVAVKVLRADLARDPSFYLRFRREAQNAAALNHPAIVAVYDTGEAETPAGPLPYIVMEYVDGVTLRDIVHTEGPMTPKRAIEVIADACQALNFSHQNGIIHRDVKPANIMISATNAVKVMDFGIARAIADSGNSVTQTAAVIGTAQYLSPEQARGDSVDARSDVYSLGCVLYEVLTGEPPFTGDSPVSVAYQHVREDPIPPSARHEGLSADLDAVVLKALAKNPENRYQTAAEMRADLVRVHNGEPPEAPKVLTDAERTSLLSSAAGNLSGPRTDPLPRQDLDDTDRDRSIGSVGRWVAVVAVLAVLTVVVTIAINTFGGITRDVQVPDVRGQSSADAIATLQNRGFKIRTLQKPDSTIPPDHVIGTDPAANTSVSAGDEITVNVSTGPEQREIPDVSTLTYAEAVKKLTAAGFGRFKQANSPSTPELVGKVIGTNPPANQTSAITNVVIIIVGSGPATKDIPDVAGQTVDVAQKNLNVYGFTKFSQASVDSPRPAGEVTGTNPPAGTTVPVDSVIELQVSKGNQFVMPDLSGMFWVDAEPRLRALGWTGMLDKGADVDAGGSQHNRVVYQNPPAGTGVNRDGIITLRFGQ
UniProt P61075, sequence (whole entry, looked up): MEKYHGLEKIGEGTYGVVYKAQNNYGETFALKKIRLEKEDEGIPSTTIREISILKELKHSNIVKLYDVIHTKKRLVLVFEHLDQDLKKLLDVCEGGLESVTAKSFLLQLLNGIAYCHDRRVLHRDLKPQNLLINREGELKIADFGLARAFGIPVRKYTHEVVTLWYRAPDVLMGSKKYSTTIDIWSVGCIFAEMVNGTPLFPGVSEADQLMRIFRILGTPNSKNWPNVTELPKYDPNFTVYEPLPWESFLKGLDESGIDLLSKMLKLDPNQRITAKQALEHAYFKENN

Series 1 — species: human; medium: microsomes or S9; concentration: 2 µM; time: 0.5 h
| SMILES | remaining compound [%] |
| --- | --- |
| c1cc2c(cn1)CN(c1ncnc3sc4c(c13)CCCC4)C2 | 0.648 |
| O=C1N=C(O)C(CCc2ccncc2)(Cc2ccc(OCc3ccccc3)cc2)C(=O)N1 (centres unmarked) | 21.8 |
| CC(C)CCC1(CN2CCCC2=O)C(=O)NC(=O)NC1=O | 93.9 |

Further values, each from its own experiment
EIF4A1: Eukaryotic initiation factor 4A-I (EIF4A1, Homo sapiens, UniProt P60842)
UniProt P60842, sequence (whole entry, looked up): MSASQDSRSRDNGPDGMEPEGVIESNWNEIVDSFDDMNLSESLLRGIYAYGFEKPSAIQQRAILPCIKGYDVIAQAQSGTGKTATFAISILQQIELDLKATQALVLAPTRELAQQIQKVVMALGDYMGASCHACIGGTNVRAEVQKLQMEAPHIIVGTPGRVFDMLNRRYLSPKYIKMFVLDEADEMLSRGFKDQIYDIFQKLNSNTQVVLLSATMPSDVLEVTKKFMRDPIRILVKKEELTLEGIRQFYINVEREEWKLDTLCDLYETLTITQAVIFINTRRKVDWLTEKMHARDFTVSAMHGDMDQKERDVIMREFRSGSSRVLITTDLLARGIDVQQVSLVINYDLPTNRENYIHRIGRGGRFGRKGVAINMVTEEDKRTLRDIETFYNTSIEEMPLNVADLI
| SMILES | target | test | setting | scale | endpoint | value |
| --- | --- | --- | --- | --- | --- | --- |
| COC(=O)[C@@H]1[C@@H](c2ccccc2)[C@]2(c3ccc(OC)cc3)Oc3cc(OC)cc(OC)c3[C@@]1(O)[C@@H]2O | EIF4A1 | RNA clamping, fluorescence polarization | concentration not given, with: FAM-labelled poly r(AG)8 RNA | higher = more clamping | fluorescence polarization change | 8.2 mP and 7.1 mP and 11.9 mP and 7.6 mP |
| O=C(O)[C@@H]1[C@@H](Cn2nnc3ccccc3c2=O)CC[C@H]1C(=O)c1ccc(OCCC2CCOCC2)cc1 | pknB (Mycobacterium tuberculosis, UniProt P9WI81) | cell-free assay, competition with immobilised ligand | 1 µM |  | remaining binding | 94% |
| COC(=O)[C@@H]1[C@@H](c2ccccc2)C2(c3ccc(OC)cc3)C(=O)C1(O)c1ccccc1N2C (some centres unmarked) | EIF4A1 | RNA clamping, fluorescence polarization | concentration not given, with: FAM-labelled poly r(AG)8 RNA | higher = more clamping | fluorescence polarization change | -0.3 mP |
| CCOC(=O)c1cc2cc(-c3cc(C(=O)NCc4ccc(C(=O)O)cc4)nn3C)ccc2[nH]1 | CRK2 (Plasmodium falciparum, UniProt P61075) | cell-free assay, competition with immobilised ligand | 0.1 µM |  | remaining binding | 65% |
| CN[C@@H]1C[C@H]2O[C@@](C)([C@@H]1OC)n1c3ccccc3c3c4c(c5c6ccccc6n2c5c31)C(=O)NC4 | FLT3 (Homo sapiens, UniProt P36888) | enzyme activity, inhibitor | 0.5 µM | baseline: control | remaining activity | 2.41% and 1.12% |

Repeated from above (further values, each from its own experiment):
| SMILES | target | test | setting | scale | endpoint | value |
| --- | --- | --- | --- | --- | --- | --- |
| CN[C@@H]1C[C@H]2O[C@@](C)([C@@H]1OC)n1c3ccccc3c3c4c(c5c6ccccc6n2c5c31)C(=O)NC4 | FLT3 (Homo sapiens, UniProt P36888) | enzyme activity, inhibitor | 0.5 µM | baseline: control | remaining activity | 2.41% and 1.12% |
